Assay results of several laboratories.
Each line is one published result; not all experiments were run side by side.
Organism: Pseudomonas aeruginosa

| Structure (SMILES) | assay | test system | setting | MIC |
| --- | --- | --- | --- | --- |
| CC(C)C[C@@H]1NC(=O)[C@H](CCCCN)NC(=O)CNC(=O)[C@H]2CCCN2C(=O)[C@H](CCCCN)NC(=O)[C@H](CC(C)C)NC(=O)[C@H](CCCCN)NC(=O)[C@H](CC(C)C)NC(=O)[C@H](CCCCN)NC(=O)C(N)CCC=CCCC(C(N)=O)NC(=O)[C@H](CCCCN)NC(=O)[C@H](CC(C)C)NC(=O)[C@H](CCCCN)NC1=O (stereo partly drawn) | broth microdilution | ATCC 9027, Mueller-Hinton broth | 18 h, 37 °C | 8 µM |
| CC[C@H](C)[C@H](NC(=O)[C@@H](CCCNC(=N)N)NC(=O)[C@H](CCCNC(=N)N)NC(=O)[C@H](Cc1c[nH]c2ccccc12)NC(=O)[C@H](Cc1c[nH]c2ccccc12)NC(=O)[C@H](CCCNC(=N)N)NC(=O)[C@@H]1CCCN1C(=O)[C@H](CCCNC(=N)N)NC(=O)[C@@H]1CCCN1C(=O)[C@H](CC(C)C)NC(=O)[C@H](Cc1ccc(O)cc1)NC(=O)[C@@H]1CCCN1C(=O)[C@@H]1CCCN1C(=O)[C@H](CCCCN)NC(=O)[C@H](CC(=O)O)NC(=O)[C@@H](N)C(C)C)C(=O)N[C@@H](Cc1ccc(O)cc1)C(=O)N[C@@H](CC(N)=O)C(=O)N[C@H](CCCNC(=N)N)C(N)=O | broth microdilution | DSM 1117 | 18 h, 37 °C, 25% MHB2 | 64 µg/mL |
| CCn1c(-c2ccc(-c3ccc(F)cc3)cc2)c(-c2ccc(-c3ccc(F)cc3)cc2)n(CC)c1=[Se] | broth microdilution | carbapenem-resistant BAA-2108 | 24 h | > 40 µM |
| CC[C@H](C)[C@H](NC(=O)[C@@H](CCCNC(=N)N)NC(=O)[C@H](CCCNC(=N)N)NC(=O)[C@H](CCC(=O)O)NC(=O)[C@H](Cc1c[nH]c2ccccc12)NC(=O)[C@H](CCCNC(=N)N)NC(=O)[C@@H]1CCCN1C(=O)[C@H](CCCNC(=N)N)NC(=O)[C@@H]1CCCN1C(=O)[C@H](CC(C)C)NC(=O)[C@H](Cc1ccc(O)cc1)NC(=O)[C@@H]1CCCN1C(=O)[C@@H]1CCCN1C(=O)[C@H](CCCCN)NC(=O)[C@H](CC(=O)O)NC(=O)[C@@H](N)C(C)C)C(=O)N[C@@H](Cc1ccc(O)cc1)C(=O)N[C@@H](CC(N)=O)C(=O)N[C@H](CCCNC(=N)N)C(N)=O | broth microdilution | DSM 1117 | 18 h, 37 °C, 25% MHB2 | > 128 µg/mL |
| CC[C@H](C)[C@H](NC(=O)[C@H](CCCNC(=N)N)NC(=O)[C@@H](NC(=O)[C@@H](NC(=O)[C@H](CCCNC(=N)N)NC(=O)[C@H](CCCCN)NC(=O)[C@H](Cc1ccccc1)NC(=O)[C@H](CCCNC(=N)N)NC(=O)[C@H](CCCCN)NC(=O)[C@@H](NC(=O)[C@@H](N)CCCCN)[C@@H](C)CC)[C@@H](C)CC)C(C)C)C(=O)N[C@@H](CCCCN)C(=O)N[C@@H](Cc1ccccc1)C(=O)N[C@@H](CC(C)C)C(=O)N[C@@H](CCCNC(=N)N)C(=O)N[C@H](C(=O)N[C@H](C(=O)N[C@@H](CCCNC(=N)N)C(=O)N[C@@H](CCCNC(=N)N)C(N)=O)C(C)C)C(C)C | broth microdilution | 10145 | – | 3.75 µg/mL |
| CN[C@H](CC(C)C)C(=O)N[C@H]1C(=O)N[C@@H](CC(N)=O)C(=O)N[C@H]2C(=O)N[C@H]3C(=O)N[C@H](C(=O)N[C@H](C(=O)O)c4cc(O)cc(O)c4-c4cc3ccc4O)[C@H](O)c3ccc(c(Cl)c3)Oc3cc2cc(c3O[C@@H]2O[C@H](CO)[C@@H](O)[C@H](O)[C@H]2O[C@H]2C[C@](C)(NCc3ccc(OCc4cn(CCCCC(=O)N[C@H](C(=O)N[C@@H](CCN)C(=O)N[C@H]5CCNC(=O)[C@H]([C@@H](C)O)NC(=O)[C@H](CCN)NC(=O)[C@H](CCN)NC(=O)[C@H](CC(C)C)NC(=O)[C@@H](CC(C)C)NC(=O)[C@H](CCN)NC5=O)[C@@H](C)O)nn4)c(OC)c3)[C@H](O)[C@H](C)O2)Oc2ccc(cc2Cl)[C@H]1O | broth microdilution | ATCC 35218, cation-adjusted Mueller-Hinton broth | – | 6 µM |
| CC[C@H](C)[C@H](NC(=O)[C@@H](CCCNC(=N)N)NC(=O)[C@H](CCCNC(=N)N)NC(=O)[C@H](CC(=O)O)NC(=O)[C@H](Cc1c[nH]c2ccccc12)NC(=O)[C@H](CCCNC(=N)N)NC(=O)[C@@H]1CCCN1C(=O)[C@H](CCCNC(=N)N)NC(=O)[C@@H]1CCCN1C(=O)[C@H](CC(C)C)NC(=O)[C@H](Cc1ccc(O)cc1)NC(=O)[C@@H]1CCCN1C(=O)[C@@H]1CCCN1C(=O)[C@H](CCCCN)NC(=O)[C@H](CC(=O)O)NC(=O)[C@@H](N)C(C)C)C(=O)N[C@@H](Cc1ccc(O)cc1)C(=O)N[C@@H](CC(N)=O)C(=O)N[C@H](CCCNC(=N)N)C(N)=O | broth microdilution | DSM 1117 | 18 h, 37 °C, 25% MHB2 | > 128 µg/mL |
| CN[C@H](CC(C)C)C(=O)N[C@H]1C(=O)N[C@@H](CC(N)=O)C(=O)N[C@H]2C(=O)N[C@H]3C(=O)N[C@H](C(=O)N[C@H](C(=O)NCC(N)=O)c4cc(O)cc(O)c4-c4cc3ccc4O)[C@H](O)c3ccc(c(Cl)c3)Oc3cc2cc(c3O[C@@H]2O[C@H](CO)[C@@H](O)[C@H](O)[C@H]2O[C@H]2C[C@](C)(NCc3ccc(OCc4cn(CC(=O)N[C@H](C(=O)N[C@@H](CCN)C(=O)N[C@H]5CCNC(=O)[C@H]([C@@H](C)O)NC(=O)[C@H](CCN)NC(=O)[C@H](CCN)NC(=O)[C@H](CC(C)C)NC(=O)[C@@H](CC(C)C)NC(=O)[C@H](CCN)NC5=O)[C@@H](C)O)nn4)c(OC)c3)[C@H](O)[C@H](C)O2)Oc2ccc(cc2Cl)[C@H]1O | broth microdilution | ATCC 27853, cation-adjusted Mueller-Hinton broth | – | 6 µM |
| CC[C@H](C)[C@H](NC(=O)[C@H](C)NC(=O)[C@@H](NC(=O)[C@H](CC(=O)O)NC(=O)[C@H](CCCCN)NC(=O)[C@H](CO)NC(=O)[C@@H](NC(=O)[C@H](CC(N)=O)NC(=O)[C@H](C)NC(=O)[C@@H](NC(=O)[C@H](CCC(=O)O)NC(=O)[C@H](CCCCN)NC(=O)[C@@H](NC(=O)[C@@H](NC(=O)[C@H](Cc1c[nH]cn1)NC(=O)[C@H](CCCCN)NC(=O)[C@@H](NC(=O)[C@H](CCCCN)NC(=O)[C@H](CCCCN)NC(=O)[C@@H](NC(=O)[C@H](CC(C)C)NC(=O)[C@H](CCCCN)NC(=O)[C@H](CC(N)=O)NC(=O)[C@H](Cc1ccccc1)NC(=O)[C@H](CCCNC(=N)N)NC(=O)[C@H](CCCCN)NC(=O)[C@H](CCCNC(=N)N)NC(=O)[C@H](Cc1ccccc1)NC(=O)CN)C(C)C)C(C)C)[C@@H](C)O)[C@@H](C)CC)[C@@H](C)O)C(C)C)C(C)C)C(=O)N[C@H](C(=O)N[C@@H](C)C(=O)NCC(=O)N[C@@H](CO)C(=O)NCC(=O)N[C@H](C(=O)N[C@@H](C)C(=O)N[C@H](C(=O)NCC(=O)N[C@@H](C)C(=O)N[C@@H](C)C(=O)N[C@@H](CCSC)C(N)=O)C(C)C)C(C)C)C(C)C | broth microdilution | RKI 93/12, CAMHB with 10% mouse serum | – | 16 µg/mL |
| CN[C@H](CC(C)C)C(=O)N[C@H]1C(=O)N[C@@H](CC(N)=O)C(=O)N[C@H]2C(=O)N[C@H]3C(=O)N[C@H](C(=O)N[C@H](C(=O)NCc4cn(CCCCC(=O)N[C@H](C(=O)N[C@@H](CCN)C(=O)N[C@H]5CCNC(=O)[C@H]([C@@H](C)O)NC(=O)[C@H](CCN)NC(=O)[C@H](CCN)NC(=O)[C@H](CC(C)C)NC(=O)[C@@H](CC(C)C)NC(=O)[C@H](CCN)NC5=O)[C@@H](C)O)nn4)c4cc(O)cc(O)c4-c4cc3ccc4O)[C@H](O)c3ccc(c(Cl)c3)Oc3cc2cc(c3O[C@@H]2O[C@H](CO)[C@@H](O)[C@H](O)[C@H]2O[C@H]2C[C@](C)(N)[C@H](O)[C@H](C)O2)Oc2ccc(cc2Cl)[C@H]1O | broth microdilution | ATCC 10145, cation-adjusted Mueller-Hinton broth | – | > 50 µM |
| CCCCCCCC(=O)N[C@@H](CCN)C(=O)N[C@H](C(=O)N[C@@H](CCN)C(=O)N[C@H]1CCNC(=O)[C@H]([C@@H](C)O)NC(=O)[C@H](CCN)NC(=O)[C@H](CCN)NC(=O)[C@H](Cc2ccc(F)cc2)NC(=O)[C@@H](CC(C)C)NC(=O)[C@H](CCN)NC1=O)[C@@H](C)O | broth microdilution | colistin-resistant isolates | – | 32 to 64 µg/mL |
| CN[C@H](CC(C)C)C(=O)N[C@H]1C(=O)N[C@@H](CC(N)=O)C(=O)N[C@H]2C(=O)N[C@H]3C(=O)N[C@H](C(=O)N[C@H](C(=O)NCc4cn(CC(=O)N[C@H](C(=O)N[C@@H](CCN)C(=O)N[C@H]5CCNC(=O)[C@H]([C@@H](C)O)NC(=O)[C@H](CCN)NC(=O)[C@H](CCN)NC(=O)[C@H](CC(C)C)NC(=O)[C@@H](CC(C)C)NC(=O)[C@H](CCN)NC5=O)[C@@H](C)O)nn4)c4cc(O)cc(O)c4-c4cc3ccc4O)[C@H](O)c3ccc(c(Cl)c3)Oc3cc2cc(c3O[C@@H]2O[C@H](CO)[C@@H](O)[C@H](O)[C@H]2O[C@H]2C[C@](C)(N)[C@H](O)[C@H](C)O2)Oc2ccc(cc2Cl)[C@H]1O | broth microdilution | ATCC 10145, cation-adjusted Mueller-Hinton broth | – | > 51 µM |
| CC(=O)N[C@H](Cc1c(F)c(F)c(F)c(F)c1F)C(=O)N[C@@H](CCN)C(=O)N[C@H](C(=O)N[C@@H](CCN)C(=O)N[C@H]1CCNC(=O)[C@H]([C@@H](C)O)NC(=O)[C@H](CCN)NC(=O)[C@H](CCN)NC(=O)[C@H](CC(C)C)NC(=O)[C@@H](Cc2ccccc2)NC(=O)[C@H](CCN)NC1=O)[C@@H](C)O | broth microdilution | PAO1, colistin-susceptible | – | 0.25 to 0.5 µg/mL |
| CN[C@H](CC(C)C)C(=O)N[C@H]1C(=O)N[C@@H](CC(N)=O)C(=O)N[C@H]2C(=O)N[C@H]3C(=O)N[C@H](C(=O)N[C@H](C(=O)N[C@@H](CCCNC(=N)N)C(N)=O)c4cc(O)cc(O)c4-c4cc3ccc4O)[C@H](O)c3ccc(c(Cl)c3)Oc3cc2cc(c3O[C@@H]2O[C@H](CO)[C@@H](O)[C@H](O)[C@H]2O[C@H]2C[C@](C)(NCc3ccc(OCc4cn(CC(=O)N[C@H](C(=O)N[C@@H](CCN)C(=O)N[C@H]5CCNC(=O)[C@H]([C@@H](C)O)NC(=O)[C@H](CCN)NC(=O)[C@H](CCN)NC(=O)[C@H](CC(C)C)NC(=O)[C@@H](CC(C)C)NC(=O)[C@H](CCN)NC5=O)[C@@H](C)O)nn4)c(OC)c3)[C@H](O)[C@H](C)O2)Oc2ccc(cc2Cl)[C@H]1O | broth microdilution | ATCC 35218, cation-adjusted Mueller-Hinton broth | – | 3 µM |
| CC[C@H](C)[C@H](N)C(=O)N[C@@H](CCCNC(=N)N)C(=O)N[C@H](C(=O)N[C@@H](Cc1c[nH]c2ccccc12)C(=O)N[C@@H](CCCCN)C(=O)N[C@@H](CCCCN)C(=O)N[C@H](C(=O)N[C@H](C(=O)N[C@@H](CCCNC(=N)N)C(=O)N[C@@H](CCCCN)C(=O)N[C@@H](Cc1c[nH]c2ccccc12)C(=O)N[C@@H](CCCCN)C(=O)N[C@@H](C)C(=O)N[C@H](C(=O)N[C@@H](Cc1c[nH]c2ccccc12)C(=O)N[C@@H](Cc1c[nH]cn1)C(N)=O)[C@@H](C)CC)C(C)C)[C@@H](C)CC)C(C)C | broth dilution | ATCC 27853 | – | 50 µM |

A few entries again:
| Structure (SMILES) | assay | test system | setting | MIC |
| --- | --- | --- | --- | --- |
| CC[C@H](C)[C@H](NC(=O)[C@H](C)NC(=O)[C@@H](NC(=O)[C@H](CC(=O)O)NC(=O)[C@H](CCCCN)NC(=O)[C@H](CO)NC(=O)[C@@H](NC(=O)[C@H](CC(N)=O)NC(=O)[C@H](C)NC(=O)[C@@H](NC(=O)[C@H](CCC(=O)O)NC(=O)[C@H](CCCCN)NC(=O)[C@@H](NC(=O)[C@@H](NC(=O)[C@H](Cc1c[nH]cn1)NC(=O)[C@H](CCCCN)NC(=O)[C@@H](NC(=O)[C@H](CCCCN)NC(=O)[C@H](CCCCN)NC(=O)[C@@H](NC(=O)[C@H](CC(C)C)NC(=O)[C@H](CCCCN)NC(=O)[C@H](CC(N)=O)NC(=O)[C@H](Cc1ccccc1)NC(=O)[C@H](CCCNC(=N)N)NC(=O)[C@H](CCCCN)NC(=O)[C@H](CCCNC(=N)N)NC(=O)[C@H](Cc1ccccc1)NC(=O)CN)C(C)C)C(C)C)[C@@H](C)O)[C@@H](C)CC)[C@@H](C)O)C(C)C)C(C)C)C(=O)N[C@H](C(=O)N[C@@H](C)C(=O)NCC(=O)N[C@@H](CO)C(=O)NCC(=O)N[C@H](C(=O)N[C@@H](C)C(=O)N[C@H](C(=O)NCC(=O)N[C@@H](C)C(=O)N[C@@H](C)C(=O)N[C@@H](CCSC)C(N)=O)C(C)C)C(C)C)C(C)C | broth microdilution | RKI 93/12, CAMHB with 10% mouse serum | – | 16 µg/mL |
